# Experimental data pooled from the literature.
# Lines come from different studies, so protocols differ. ± marks the error that the study gave.
# uncharacterized protein: uncharacterized protein (Streptococcus mutans serotype c, UniProt Q8DS94)
SMILES,target,test,test system,conditions,scale,EC50 [µM]
"NCC1CC1c1cc(O)ccc1OCC1CC1 (single isomer, unassigned; (+))","HTR2C (Homo sapiens, UniProt P28335)","calcium signal, agonist",,,,0.0093
O=C(CSc1nnc(-c2cccnc2)n1C1CC1)N1CCc2cc(Br)ccc21,"Orco (Drosophila melanogaster, UniProt Q9VNB5)","calcium mobilization, agonist",HEK293 expressing Orco,,,16.7
CCN(Cc1ccccc1)C(=O)CCc1nc(CN2CCN(C(=O)Cc3ccc(OC)c(OC)c3)CC2)no1,"KCNQ5 (Homo sapiens, UniProt Q9NR82)","ion current, opener, whole-cell patch clamp",transfected cells,,,0.0271 ± 0.00306
CC(C)C[C@H](NC(=O)[C@H](C)NC(=O)[C@H](CCC(N)=O)NC(=O)[C@@H](NC(=O)[C@H](Cc1ccccc1)NC(=O)[C@H](CO)NC(=O)[C@H](CCCNC(=N)N)NC(=O)[C@H](CC(N)=O)NC(=O)[C@H](Cc1ccccc1)NC(=O)[C@H](CC(C)C)NC(=O)[C@H](CCCNC(=N)N)NC(=O)[C@H](Cc1ccccc1)NC(=O)[C@H](Cc1ccccc1)NC(=O)[C@@H](NC(=O)[C@@H](CO)NC(=O)[C@H](CC(C)C)NC(=O)[C@H](CO)NC(=O)CNC(=O)[C@@H](N)CO)[C@@H](C)O)[C@@H](C)O)C(=O)NCC(=O)N[C@@H](CCCCN)C(=O)O,uncharacterized protein,,Streptococcus mutans,,,0.64
CC(=O)N[C@@H](CCCNC(=N)N)C(=O)N[C@@H](Cc1ccc(O)cc1)C(=O)N[C@@H](CCCN/C(N)=N/C(=O)NCCCCN)C(=O)N[C@@H](CC(C)C)C(=O)N[C@@H](CCCNC(=N)N)C(=O)N[C@@H](Cc1ccc(O)cc1)C(N)=O,"NPY4R (Homo sapiens, UniProt P50391)","calcium signal, agonist",,,,0.187
O=C1SCCC1NC(C(=O)NCc1ccccc1)C1CC1 (stereo not drawn),"Thiosulfate sulfurtransferase (TST, Bos taurus, UniProt P00586)","enzyme activity, activator",,,,12.9 ± 2.7
CC[C@H](C)[C@H](NC(=O)[C@H](C)NC(=O)[C@H](CCC(=O)O)NC(=O)[C@H](C)NC(=O)[C@H](CC(C)C)NC(=O)CNC(=O)[C@@H](NC(=O)[C@H](CCSC)NC=O)[C@@H](C)O)C(=O)N[C@@H](C)C(=O)N[C@@H](CC(N)=O)C(=O)N[C@H](C(=O)N[C@H](C(=O)N[C@@H](CCC(N)=O)C(=O)N[C@@H](C)C(=O)N[C@@H](C)C(=O)N[C@@H](CCC(N)=O)C(=O)N[C@@H](CCC(N)=O)C(=O)N[C@@H](Cc1c[nH]cn1)C(=O)N[C@@H](CC(=O)O)C(=O)N[C@@H](CO)C(=O)N[C@H](C(=O)N[C@@H](CCCCN)C(=O)N[C@@H](CC(C)C)C(=O)NCC(=O)N[C@H](C(=O)N[C@@H](CO)C(=O)N[C@H](C(=O)N[C@H](C(=O)N[C@@H](CC(=O)O)C(=O)N[C@H](C(=O)N[C@@H](C)C(=O)N[C@@H](CC(N)=O)C(=O)NCC(=O)N[C@H](C(=O)NCC(=O)N[C@@H](CC(C)C)C(=O)N[C@@H](CC(C)C)C(=O)NCC(=O)N[C@@H](CCCCN)C(=O)N[C@@H](CC(C)C)C(=O)N[C@@H](Cc1ccccc1)C(=O)NCC(=O)N[C@@H](Cc1ccccc1)C(=O)O)C(C)C)[C@@H](C)CC)C(C)C)[C@@H](C)CC)[C@@H](C)O)C(C)C)C(C)C)[C@@H](C)O,"FPR2 (Homo sapiens, UniProt P25090)","calcium flux, agonist, flow cytometry, Fluo-3",,37 °C,,0.389
CCCCCCCCc1ccc(C(=O)N[C@@H](CO)C(=O)N[C@H](C(=O)N[C@@H](C)C(=O)N[C@H](C(N)=O)[C@@H](C)CC)[C@@H](C)OP(=O)(O)O)cc1,"PLK3 (Homo sapiens, UniProt Q9H4B4)",target engagement in cells,,,,0.58
CSCC[C@H](NC(=O)[C@H](CC(C)C)NC(=O)[C@H](CO)NC(=O)CNC(=O)[C@@H](NC(=O)[C@H](C)NC(=O)[C@H](Cc1c[nH]c2ccccc12)NC(=O)[C@H](CC(C)C)NC(=O)[C@@H]1CCC(=O)N1)C(C)C)C(N)=O,"NMBR (Homo sapiens, UniProt P28336)","inositol phosphate generation, agonist",BALB/3T3 expressing human NMBR,"45 min, 37 °C",relative to: 1 µM neuromedin B,0.0151 ± 0.0007
CC(C)C[C@H](NC(=O)[C@H](C)NC(=O)[C@H](CCC(N)=O)NC(=O)[C@@H](NC(=O)[C@H](Cc1ccccc1)NC(=O)[C@H](CO)NC(=O)[C@H](CCCNC(=N)N)NC(=O)[C@H](CC(N)=O)NC(=O)[C@H](Cc1ccccc1)NC(=O)[C@H](CC(C)C)NC(=O)[C@H](CCCNC(=N)N)NC(=O)[C@H](Cc1ccccc1)NC(=O)[C@H](Cc1ccccc1)NC(=O)[C@@H](NC(=O)[C@@H](N)CO)[C@@H](C)O)[C@@H](C)O)C(=O)NCC(=O)N[C@@H](CCCCN)C(=O)O,uncharacterized protein,,Streptococcus mutans,,,3.6
Nc1ncnc2c1ncn2C1OC(COP(=O)(O)OP(=O)(O)OCC2OC(O)C(O)C2O)C(O)C1O (stereo not drawn),"TRPM2 (Nematostella vectensis, UniProt A7T1N0, R329A)","channel activation, agonist, inside-out patch clamp",,"estimate uncertain, added: 125 µM Ca2+ and 2.5 µM PIP2",,1710 ± 934
N=C(N)NCCC[C@H](N)C(=O)N1CCC[C@H]1C(=O)N[C@@H](CCCCN)C(=O)N1CCC[C@H]1C(=O)N[C@@H](CCC(N)=O)C(=O)N[C@@H](CCC(N)=O)C(=O)N[C@@H](Cc1ccccc1)C(=O)N[C@@H](Cc1ccccc1)C(=O)NCC(N)=O,"TACR1 (Homo sapiens, UniProt P25103)","calcium signal, agonist, fluorescence",,,,7.3
CC[C@H](C)[C@H](NC(=O)[C@H](Cc1ccccc1)NC(=O)[C@@H](N)CO)C(=O)N[C@@H](CCCCN)C(=O)N1CCC[C@H]1C(=O)N[C@@H](CC(N)=O)C(=O)N[C@@H](CC(N)=O)C(=O)N[C@H](C(=O)N1CCC[C@H]1C(=O)N[C@@H](CCCNC(=N)N)C(=O)N[C@H](C(N)=O)C(C)C)C(C)C,"Ecdysis triggering hormone receptor A (Aedes aegypti, UniProt A7J264)",,,,,~0.764
CC[C@H](C)[C@H](NC(=O)[C@H](CC(N)=O)NC(=O)[C@H](Cc1c[nH]cn1)NC(=O)[C@@H](NC(=O)[C@@H](NC(=O)[C@H](CCCNC(=N)N)NC(=O)[C@@H](NC(=O)[C@@H](N)CCC(=O)O)[C@@H](C)CC)[C@@H](C)CC)[C@@H](C)O)C(=O)N[C@@H](Cc1ccccc1)C(=O)N[C@@H](Cc1ccccc1)C(=O)N[C@@H](CC(N)=O)C(=O)N[C@@H](Cc1ccccc1)C(=O)N[C@@H](Cc1ccccc1)C(=O)N[C@@H](CCCCN)C(=O)N[C@@H](CCCNC(=N)N)C(=O)N[C@@H](CCCNC(=N)N)C(=O)O,"histidine kinase ComD (Streptococcus pneumoniae serotype 2, UniProt A0A0H2ZM50)","reporter gene, agonist","Streptococcus pneumoniae, D39 comX::lacZ","30 min, pH 7.3, 37 °C",,> 10
CC(C)C[C@H](NC(=O)[C@H](C)NC(=O)[C@H](CCC(N)=O)NC(=O)[C@@H](NC(=O)[C@H](Cc1ccccc1)NC(=O)[C@H](CO)NC(=O)[C@H](CCCNC(=N)N)NC(=O)[C@H](CC(N)=O)NC(=O)[C@H](Cc1ccccc1)NC(=O)[C@H](CC(C)C)NC(=O)[C@H](CCCNC(=N)N)NC(=O)[C@H](Cc1ccccc1)NC(=O)[C@H](Cc1ccccc1)NC(=O)[C@@H](NC(=O)[C@H](CO)NC(=O)[C@H](CC(C)C)NC(=O)[C@H](CO)NC(=O)CNC(=O)[C@@H](N)CO)[C@@H](C)O)[C@@H](C)O)C(=O)O,uncharacterized protein,,Streptococcus mutans,,,3.6
CC1(C)CCC(C)(C)c2c1cc(C(=O)Nc1cc(F)c(C(=O)O)c(F)c1)c(O)c2Cl,"RARG (Homo sapiens, UniProt P13631)","reporter gene, agonist, luciferase",,,,> 5
CC(C)C[C@H](NC(=O)[C@H](CO)NC(=O)CNC(=O)[C@@H](N)CO)C(=O)N[C@@H](CO)C(=O)N[C@H](C(=O)N[C@@H](Cc1ccccc1)C(=O)N[C@@H](Cc1ccccc1)C(=O)N[C@@H](CCCNC(=N)N)C(=O)N[C@@H](CC(C)C)C(=O)N[C@@H](Cc1ccccc1)C(=O)N[C@@H](CC(N)=O)C(=O)N[C@@H](CCCNC(=N)N)C(=O)N[C@@H](CO)C(=O)N[C@@H](Cc1ccccc1)C(=O)N[C@H](C(=O)N[C@@H](CCC(N)=O)C(=O)N[C@H](C)C(=O)O)[C@@H](C)O)[C@@H](C)O,uncharacterized protein,,Streptococcus mutans,,,> 1
CC(C)CC(=O)NC1CCCC1=O (stereo not drawn),"rhlR (Pseudomonas aeruginosa, UniProt P54292)","reporter gene, agonist",,,,7.58

# A few entries again:
SMILES,target,test,test system,conditions,scale,EC50 [µM]
CC(C)C[C@H](NC(=O)[C@H](C)NC(=O)[C@H](CCC(N)=O)NC(=O)[C@@H](NC(=O)[C@H](Cc1ccccc1)NC(=O)[C@H](CO)NC(=O)[C@H](CCCNC(=N)N)NC(=O)[C@H](CC(N)=O)NC(=O)[C@H](Cc1ccccc1)NC(=O)[C@H](CC(C)C)NC(=O)[C@H](CCCNC(=N)N)NC(=O)[C@H](Cc1ccccc1)NC(=O)[C@H](Cc1ccccc1)NC(=O)[C@@H](NC(=O)[C@@H](CO)NC(=O)[C@H](CC(C)C)NC(=O)[C@H](CO)NC(=O)CNC(=O)[C@@H](N)CO)[C@@H](C)O)[C@@H](C)O)C(=O)NCC(=O)N[C@@H](CCCCN)C(=O)O,uncharacterized protein,,Streptococcus mutans,,,0.64
CC1(C)CCC(C)(C)c2c1cc(C(=O)Nc1cc(F)c(C(=O)O)c(F)c1)c(O)c2Cl,"RARG (Homo sapiens, UniProt P13631)","reporter gene, agonist, luciferase",,,,> 5
CC[C@H](C)[C@H](NC(=O)[C@H](Cc1ccccc1)NC(=O)[C@@H](N)CO)C(=O)N[C@@H](CCCCN)C(=O)N1CCC[C@H]1C(=O)N[C@@H](CC(N)=O)C(=O)N[C@@H](CC(N)=O)C(=O)N[C@H](C(=O)N1CCC[C@H]1C(=O)N[C@@H](CCCNC(=N)N)C(=O)N[C@H](C(N)=O)C(C)C)C(C)C,"Ecdysis triggering hormone receptor A (Aedes aegypti, UniProt A7J264)",,,,,~0.764
